Measured values gathered from unrelated publications.
Compare with care: the assays were run in different laboratories. Several values in a cell are separate wells, animals, samples, runs or records. ± marks the error that the study gave.
CALM1 Ca2+-bound C-lobe: Calmodulin-1, Ca2+-bound C-lobe (CALM1, Homo sapiens, UniProt P0DP23)
Genome polyprotein NS3 helicase domain: Genome polyprotein, NS3 helicase domain (Hepatitis C virus genotype 1b, UniProt Q9WMX2)
ESR1: Estrogen receptor (ESR1, Homo sapiens, UniProt P03372)
UniProt P03372, sequence (whole entry, looked up): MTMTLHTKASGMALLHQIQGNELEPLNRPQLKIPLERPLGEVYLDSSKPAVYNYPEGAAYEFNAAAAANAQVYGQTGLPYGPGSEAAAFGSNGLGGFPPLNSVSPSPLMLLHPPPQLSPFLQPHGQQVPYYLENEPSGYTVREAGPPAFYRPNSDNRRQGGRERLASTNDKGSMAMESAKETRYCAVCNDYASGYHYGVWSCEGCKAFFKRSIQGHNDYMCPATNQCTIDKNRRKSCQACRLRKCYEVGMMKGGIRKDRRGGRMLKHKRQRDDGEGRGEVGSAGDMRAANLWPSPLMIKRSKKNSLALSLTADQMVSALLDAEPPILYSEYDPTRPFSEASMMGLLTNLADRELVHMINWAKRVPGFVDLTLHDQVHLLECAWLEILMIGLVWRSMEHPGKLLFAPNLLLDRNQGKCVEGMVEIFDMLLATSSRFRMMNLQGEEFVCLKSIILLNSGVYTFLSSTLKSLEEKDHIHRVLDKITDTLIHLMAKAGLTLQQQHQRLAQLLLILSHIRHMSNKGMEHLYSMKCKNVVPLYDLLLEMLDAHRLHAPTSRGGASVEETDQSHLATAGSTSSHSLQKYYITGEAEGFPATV
WD repeat-containing protein 91 WD40 domain, residues 392–747: WD repeat-containing protein 91, WD40 domain, residues 392–747 (Homo sapiens, UniProt A4D1P6)
UniProt A4D1P6, sequence (whole entry, looked up): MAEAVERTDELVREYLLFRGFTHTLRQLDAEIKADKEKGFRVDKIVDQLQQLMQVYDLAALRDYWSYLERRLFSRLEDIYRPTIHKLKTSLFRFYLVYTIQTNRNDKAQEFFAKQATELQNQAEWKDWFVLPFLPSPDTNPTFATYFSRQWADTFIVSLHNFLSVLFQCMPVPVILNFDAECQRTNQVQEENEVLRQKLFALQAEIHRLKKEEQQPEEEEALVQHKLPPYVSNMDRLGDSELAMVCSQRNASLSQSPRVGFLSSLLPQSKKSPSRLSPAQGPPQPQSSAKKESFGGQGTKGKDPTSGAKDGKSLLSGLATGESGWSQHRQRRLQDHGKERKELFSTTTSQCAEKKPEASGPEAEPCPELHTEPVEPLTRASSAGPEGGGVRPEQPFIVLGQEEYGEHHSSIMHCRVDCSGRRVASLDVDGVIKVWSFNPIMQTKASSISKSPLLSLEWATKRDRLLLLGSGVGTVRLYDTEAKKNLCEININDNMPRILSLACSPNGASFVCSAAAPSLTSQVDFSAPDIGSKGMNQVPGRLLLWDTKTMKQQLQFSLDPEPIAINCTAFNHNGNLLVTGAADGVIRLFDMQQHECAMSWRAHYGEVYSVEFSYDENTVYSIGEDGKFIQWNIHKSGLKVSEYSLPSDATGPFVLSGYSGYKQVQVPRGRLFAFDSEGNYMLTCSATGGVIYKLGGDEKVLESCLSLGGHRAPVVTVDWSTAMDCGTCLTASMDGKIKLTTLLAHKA
NAA80: N-alpha-acetyltransferase 80 (NAA80, Homo sapiens, UniProt Q93015)
UniProt Q93015, sequence (whole entry, looked up): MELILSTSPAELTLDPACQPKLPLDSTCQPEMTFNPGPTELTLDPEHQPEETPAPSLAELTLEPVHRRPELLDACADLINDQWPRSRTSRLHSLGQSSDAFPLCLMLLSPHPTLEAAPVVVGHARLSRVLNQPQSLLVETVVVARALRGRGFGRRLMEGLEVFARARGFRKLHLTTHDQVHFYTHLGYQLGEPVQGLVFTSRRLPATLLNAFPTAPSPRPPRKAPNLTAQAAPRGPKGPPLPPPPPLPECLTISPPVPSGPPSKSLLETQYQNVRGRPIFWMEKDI
UniProt P51575, sequence (whole entry, unmodified, looked up): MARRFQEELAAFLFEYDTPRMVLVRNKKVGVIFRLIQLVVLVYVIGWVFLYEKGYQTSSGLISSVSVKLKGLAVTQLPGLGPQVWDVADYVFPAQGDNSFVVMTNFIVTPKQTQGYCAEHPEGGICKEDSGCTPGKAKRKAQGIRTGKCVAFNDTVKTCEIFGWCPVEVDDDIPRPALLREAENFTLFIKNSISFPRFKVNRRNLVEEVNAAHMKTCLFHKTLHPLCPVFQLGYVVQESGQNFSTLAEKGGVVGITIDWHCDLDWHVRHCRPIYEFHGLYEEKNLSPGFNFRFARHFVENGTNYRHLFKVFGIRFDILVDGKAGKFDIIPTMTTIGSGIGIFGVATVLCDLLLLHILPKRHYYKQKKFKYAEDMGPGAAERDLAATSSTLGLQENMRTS

O=C(NC1CCCS(=O)(=O)c2ccccc21)c1ccc2nc(O)cnc2c1 (centres unmarked) — SPR response (WD repeat-containing protein 91 (Homo sapiens, UniProt A4D1P6); binding, SPR steady state; 15 µM): 37 RU
CC[C@H](C)[C@H](NC(=O)[C@H](C)NC(=O)[C@H](CCSC)NC(=O)[C@H](C)NC(=O)[C@H](C)NC(=O)[C@H](Cc1ccc(O)cc1)NC(=O)[C@@H](NC(=O)[C@H](CCCCN)NC(=O)CNC(=O)[C@@H](NC(=O)[C@@H](NC(=O)[C@H](CCSC)NC(=O)[C@H](Cc1c[nH]cn1)NC(=O)CN)[C@@H](C)O)C(C)C)[C@@H](C)CC)C(=O)N[C@@H](CCSC)C(=O)N[C@@H](CCC(=O)O)C(=O)N[C@@H](Cc1ccc(O)cc1)C(=O)N[C@@H](Cc1ccc(O)cc1)C(=O)N[C@@H](CCCNC(=N)N)C(=O)N[C@@H](CCC(N)=O)C(=O)N[C@@H](CO)C(=O)N[C@@H](CCCCN)C(=O)N[C@@H](C)C(=O)N[C@@H](CCCCN)C(=O)N[C@@H](CCCCN)C(=O)N[C@@H](CC(C)C)C(=O)N[C@@H](CCC(N)=O)C(=O)N[C@@H](C)C(=O)N[C@@H](CCSC)C(=O)N[C@@H](CCCNC(=N)N)C(=O)O — ΔS (CALM1 Ca2+-bound C-lobe; binding, isothermal titration calorimetry; pH 7.4, 15 °C, C-lobe, CaV2.1 IQ domain, together with: Ca2+): 22.1 ± 2.6 cal/mol/K
CN1C2CCCC1CC(NC(=O)c1nn(C)c3ccccc13)C2 (centres unmarked) — inhibition (Genome polyprotein NS3 helicase domain; DNA binding, inhibitor; hepatitis C virus; 100 µM, together with: Cy5-dT15 DNA): 0%
O=c1c(-c2ccc(O[C@@H]3O[C@H](CO)[C@@H](O)[C@H](O)[C@H]3O)cc2)coc2cc(O)cc(O)c12 — selectivity ratio (ESR1; array formation; PRL-HeLa; baseline: EC50 ERβ over EC50 ERα): 0.715
N#CC1CCN(C(=O)c2ccc(Cn3cc(-c4ccc5ncccc5c4)nn3)cc2)CC1 — SPR response (WD repeat-containing protein 91 WD40 domain, residues 392–747; binding, SPR single-concentration screen; 45 µM): 2.5 RU and 2.2 RU
Nc1ncnc2c1ncn2[C@@H]1O[C@H](COP(=O)(O)CP(=O)(O)OP(=O)(O)O)[C@@H](O)[C@H]1O — specific binding (P2X purinoceptor 1 (P2RX1, Homo sapiens, UniProt P51575, R292A); saturation binding; HEK293; 103 nM): 87 CCPM and 218 CCPM
N[C@@H](Cc1c[nH]cn1)C(=O)O — product formation (NAA80; substrate, DTNB; 2 mM, 30 min, 37 °C, together with: acetyl-CoA 500 µM): 0.09 µM
COc1ccc(/C=C/C(=O)Nc2ccccc2C(=O)O)cc1OC — inhibition (Genome polyprotein NS3 helicase domain; DNA binding, inhibitor; hepatitis C virus; 100 µM, together with: Cy5-dT15 DNA): 1%
O=O — apparent kcat (HIF1AN (Homo sapiens, UniProt Q9NWT6, Q147A); enzyme activity, substrate, rates, initial, MALDI-TOF MS; varied, pH 7.00, 37.0 °C, Q147A, together with: CTAD peptide 80 µM, 2-oxoglutarate 100 µM): 0.517 ± 0.0833 s⁻¹
COc1cccc2c(Nc3ccc4[nH]c(C(=O)N/N=C/c5ccc(SC)cc5)cc4c3)cc(C)nc12 — activation (Nuclear receptor subfamily 4 group A member 3, ligand-binding domain (Homo sapiens, UniProt Q92570); reporter gene, Gal4 hybrid reporter; 1 µM; baseline: vehicle): 0.89 ± 0.12 fold
N#CC1CCN(C(=O)c2ccc(OC3CCC3)cc2)CC1 — SPR response (WD repeat-containing protein 91 WD40 domain, residues 392–747; binding, SPR single-concentration screen; 45 µM): -1.8 RU and -9.2 RU
CCCCCCc1ccc([C@H]2CC[C@H]([N+](C)(C)CCC)CC2)cc1.[I-] — Ki/Km ratio (SPHK1 (Homo sapiens, UniProt Q9NYA1); inhibitor, radiometric flash-plate; cell lysate; together with: sphingosine 10 µM): 3.5
CC[C@H](C)[C@H](NC(=O)[C@H](CCSC)NC(=O)[C@H](CCSC)NC(=O)[C@H](C)NC(=O)[C@H](C)NC(=O)[C@H](Cc1ccc(O)cc1)NC(=O)[C@@H](NC(=O)[C@H](CCCCN)NC(=O)CNC(=O)[C@@H](NC(=O)[C@@H](NC(=O)[C@H](CCSC)NC(=O)[C@H](Cc1c[nH]cn1)NC(=O)CN)[C@@H](C)O)C(C)C)[C@@H](C)CC)C(=O)N[C@@H](C)C(=O)N[C@@H](CCC(=O)O)C(=O)N[C@@H](Cc1ccc(O)cc1)C(=O)N[C@@H](Cc1ccc(O)cc1)C(=O)N[C@@H](CCCNC(=N)N)C(=O)N[C@@H](CCC(N)=O)C(=O)N[C@@H](CO)C(=O)N[C@@H](CCCCN)C(=O)N[C@@H](C)C(=O)N[C@@H](CCCCN)C(=O)N[C@@H](CCCCN)C(=O)N[C@@H](CC(C)C)C(=O)N[C@@H](CCC(N)=O)C(=O)N[C@@H](C)C(=O)N[C@@H](CCSC)C(=O)N[C@@H](CCCNC(=N)N)C(=O)O — ΔH (CALM1 Ca2+-bound C-lobe; binding, isothermal titration calorimetry; pH 7.4, 15 °C, C-lobe, CaV2.1 IQ domain, together with: Ca2+): -7.52 ± 0.2 kcal/mol
O=C(c1cc2cccn2cn1)N1CCN(c2ccc([N+](=O)[O-])c3cnccc23)CC1 — binding (WD repeat-containing protein 91 WD40 domain, residues 392–747; SPR; 45 µM): 29% and 11%
Nc1ncnc2c1ncn2[C@@H]1O[C@H](CO[P@](=O)(O)O[P@](=O)(O)O[P@@](=O)(O)S)[C@@H](O)[C@H]1O — ΔH (GUK1 (Homo sapiens, UniProt Q16774, R148A); binding, ITC): -7.35 ± 0.46 kcal/mol
O=C(COP(=O)(O)O)[C@@H](O)[C@H](O)[C@H](O)COP(=O)(O)O — thermal stability ratio (ADP-ribosylation factor 3 (ARF3, Homo sapiens, UniProt P61204); thermal proteome profiling, item: ARF3; HepG2 cell lysate; concentration not given, 57 over 37 °C, mean; baseline: compound over control): 0.573
CCN1CCC[C@H]1CNC(=O)c1c(O)c(Cl)cc(Cl)c1OC — log2 fold change (TAAR5 (Homo sapiens, UniProt O14804); β-arrestin recruitment, TANGO luminescence; concentration not given; baseline: basal luminescence): 0.785
O=c1nc(SCc2cc(F)cc(C(F)(F)F)c2)nc(SCc2ccc3nc(Cl)ccc3c2)[nH]1 — ATP hydrolysis rate (TOP2A (Homo sapiens, UniProt P11388); ATPase activity; 7.8 µM, together with: ATP 0.75 mM): 0.29 µM/min and 2.83 µM/min
CN1CCN(c2cc(-c3ccncc3)c(-c3ccc4ccccc4c3)nn2)CC1 — activation (EDNRA (Homo sapiens, UniProt P25101); agonist, FLIPR; 12.5 µM): -8.1%
COc1cc(F)ccc1-c1ncnc(Nc2cccc(C[S@](C)(=N)=O)c2)n1 — remaining activity (BRSK2 (Homo sapiens, UniProt Q8IWQ3); kinase activity; 10 µM, together with: 10 µM ATP): 75%
N[C@@H](Cc1ccc(O)cc1)C(=O)O — product formation (NAA80; substrate, DTNB; 2 mM, 30 min, 37 °C, together with: acetyl-CoA 500 µM): 4.12 µM
CC[C@H](C)[C@H](NC(=O)[C@H](CCCCN)NC(=O)CNC(=O)[C@@H](NC(=O)[C@@H](NC(=O)[C@H](CCSC)NC(=O)[C@H](Cc1c[nH]cn1)NC(=O)CN)[C@@H](C)O)C(C)C)C(=O)N[C@@H](Cc1ccc(O)cc1)C(=O)N[C@@H](C)C(=O)N[C@@H](C)C(=O)N[C@@H](CCSC)C(=O)N[C@@H](CCSC)C(=O)N[C@@H](C)C(=O)N[C@@H](CCSC)C(=O)N[C@@H](CCC(=O)O)C(=O)N[C@@H](Cc1ccc(O)cc1)C(=O)N[C@@H](Cc1ccc(O)cc1)C(=O)N[C@@H](CCCNC(=N)N)C(=O)N[C@@H](CCC(N)=O)C(=O)N[C@@H](CO)C(=O)N[C@@H](CCCCN)C(=O)N[C@@H](C)C(=O)N[C@@H](CCCCN)C(=O)N[C@@H](CCCCN)C(=O)N[C@@H](CC(C)C)C(=O)N[C@@H](CCC(N)=O)C(=O)N[C@@H](C)C(=O)N[C@@H](CCSC)C(=O)N[C@@H](CCCNC(=N)N)C(=O)O — ΔS (CALM1 Ca2+-bound C-lobe; binding, isothermal titration calorimetry; pH 7.4, 15 °C, C-lobe, CaV2.1 IQ domain, together with: Ca2+): 24 cal/mol/K
Nc1c(Br)cc(Br)cc1CN[C@H]1CC[C@H](O)CC1 — activation (Glutamate receptor 2 (Homo sapiens, UniProt P42262); ion current, agonist, SyncroPatch patch clamp; HEK293; 30 µM): 4%
C=CC(=O)N1CCC(COCC(=O)N2CCN(c3nc(-c4cnc(N)nc4C(F)F)nc(N4CCOC[C@@H]4C)n3)CC2)CC1 — remaining binding (DCLK2 (Homo sapiens, UniProt Q8N568); KINOMEscan; 1 µM): 92%
COc1cc(/C=C2\CC/C(=C\c3ccc(O)c(OC)c3)C2=O)ccc1O — binding stoichiometry (haemin; isothermal titration calorimetry; concentration not given, pH 7.4, 37 °C): 0.52 ± 0.24
C=CC(C)(C)c1cc(/C=C/C(=O)c2ccc(O)cc2)c(OC)cc1O — selectivity ratio (ESR1; array formation; PRL-HeLa; baseline: EC50 ERβ over EC50 ERα): 5.52
CCCCCCSC[C@H]1CN(Cc2c[nH]c3c(N)ncnc23)C[C@@H]1O — residence time (Aminodeoxyfutalosine nucleosidase (Helicobacter pylori, UniProt Q9ZMY2); radiolabel chase ultrafiltration; dissociation half-life of complex): 22 min
CC1(c2cccc([N+](=O)[O-])c2)Nc2ccccc2C(=O)N1N=Cc1cc(Br)cc(Br)c1O (centres unmarked) — activity class (RORC (Homo sapiens, UniProt P51449); cell-based; concentration not given): active
COc1cc(Nc2ncc3c(n2)-c2ccc(Cl)cc2C(c2c(F)cccc2OC)=NC3)ccc1C(=O)O — remaining activity (PAK3; kinase activity; 1 µM): 98%
NCCCCC(=O)O — normalised MST signal (SLC6A6 (Homo sapiens, UniProt P31641, G62A); binding, microscale thermophoresis; 31.3 µM, room temperature, together with: 50 nM labelled protein; higher = more binding): -0.00523
CC1CCCN(C(=O)c2cc3ncccn3n2)C1 (centres unmarked) — log fold enrichment (Transducin-like enhancer protein 4 (TLE4, Homo sapiens, UniProt Q04727); binding, affinity selection mass spectrometry; baseline: other proteins in batch): 0.0609
O=C1NC(=O)/C(=C/c2ccc(-c3ccc(F)cc3O)o2)S1 — inhibition (Genome polyprotein NS3 helicase domain; DNA binding, inhibitor; hepatitis C virus; 100 µM, together with: Cy5-dT15 DNA): 0%

For quick reference, copied from above:
Nc1c(Br)cc(Br)cc1CN[C@H]1CC[C@H](O)CC1 — activation (Glutamate receptor 2 (Homo sapiens, UniProt P42262); ion current, agonist, SyncroPatch patch clamp; HEK293; 30 µM): 4%
C=CC(=O)N1CCC(COCC(=O)N2CCN(c3nc(-c4cnc(N)nc4C(F)F)nc(N4CCOC[C@@H]4C)n3)CC2)CC1 — remaining binding (DCLK2 (Homo sapiens, UniProt Q8N568); KINOMEscan; 1 µM): 92%
COc1cc(/C=C2\CC/C(=C\c3ccc(O)c(OC)c3)C2=O)ccc1O — binding stoichiometry (haemin; isothermal titration calorimetry; concentration not given, pH 7.4, 37 °C): 0.52 ± 0.24
